Measured values gathered from unrelated publications.
Parts stem from different laboratories: compare values within a part only.

Series 1
Target: RNA binding protein fox-1 homolog 2, RRM domain, GST-SBP tag (RBFOX2, Homo sapiens, UniProt O43251-10, residues 100-194)
Method: RNA Bind-n-Seq
Molecule type: RNA
Matrix: in vitro
Tested at: 365 nM
Setting: natural RNA segment, single round, ends assumed
Relative to: no-protein control
Direction: higher = stronger binding
Target sequence (chain): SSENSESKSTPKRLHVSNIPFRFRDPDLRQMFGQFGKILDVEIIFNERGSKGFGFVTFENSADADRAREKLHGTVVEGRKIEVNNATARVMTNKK
`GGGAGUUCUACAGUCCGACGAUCUUUAAUUUACAAACUGUUUUGGUAAAUCUCUUAAUGUAAGUAGCUAUUUGACUUUGGAAUUUUGCAUUCGAGGUAUACUGUCAUUUCUUGAAAUCUUUUUCUCGUUUAGUUGGAAUUCUCGGGUGCCAA` — result for “RBNS enrichment (R)”: 1.03.
For `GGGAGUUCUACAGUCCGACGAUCUCUCACUGUUUAAAGAACACACUUUUGAGAUUAUGUGGUCCUAUCCUUGUUUUAAUGAUUAAAAAAAAAAAGACAUUCCAAAUCACAUAAACUUCAGAGGCCUCUGGCUCUGGAAUUCUCGGGUGCCAA`, “RBNS enrichment (R)” read 0.273.
For `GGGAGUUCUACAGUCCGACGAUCUGUUAUUUUUGUAUACUAUAUCACUUAGACAACUGUGUUUCAUUUGCUGUAAUCAGUUUUUAAAAGUCAGAUGGAAAAAGCAACUGAAGUCCUAGAAAAUAGAAAAUGUAUGGAAUUCUCGGGUGCCAA`, “RBNS enrichment (R)” read 0.53.
For `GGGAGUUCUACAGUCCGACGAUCACUGUACAAUUUCUUGGGGUUAACCAUCUUUAGUUAAAUGGAAUUUUAAUUUAAAUGACGCUUUGCUAAUUUUAAGUGUUAAGCAUUUUGCAUUAAAAUAUUCAUAUAAUUGGAAUUCUCGGGUGCCAA`, “RBNS enrichment (R)” read 0.87.
Under “RBNS enrichment (R)”, `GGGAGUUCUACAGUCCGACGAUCGCUGCAAACCUAAGCAGGCAGGUAGUCUAUGGACUUCCAAACUUAGAAGGGUCUGAUAUUAGGUUUAGUGCUCUGCUAGUGCAGUUGUUGAAUUCUUAAGAAUGUUUGAUUGGAAUUCUCGGGUGCCAA` is recorded as 1.9.
`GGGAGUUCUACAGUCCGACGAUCAUAGAGAAACAGCUCCUCGCCUCUUCCCAACAACGCAAAUUAUGAGCAGCUCCUUGAAGAGAUUUACCUUCAGCUUAUUUGGUAACCACUGCUAAUAACUAAAAUGUUCUUGGAAUUCUCGGGUGCCAA` — result for “RBNS enrichment (R)”: 0.389.
Under “RBNS enrichment (R)”, `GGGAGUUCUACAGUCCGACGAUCUUUUCCAGUUAGCCUAUGUAACCAAGUAUGCAUAACAUAACAGUAUUACCCUUUCACUCUUCUCACAGGACAUGUACCCAAAUAUGGUACUUAUUUAUGUAGUCACUGUGUGGAAUUCUCGGGUGCCAA` is recorded as 0.454.
`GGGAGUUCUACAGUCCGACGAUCCUCUGCCAAAUGGAAAAUGACCAAAUUUAAGAGGGUGGGACAGUCCCCUGCUCCUCUCCCAGAGGGCACUGCUUGGAAAUUGUGUUUUCCCCAUUUAUGGUGCUCUGUAUUGGAAUUCUCGGGUGCCAA`: “RBNS enrichment (R)” 0.385.

Series 2
Target: Sal-like protein 4, full length isoform B (SALL4, Homo sapiens, UniProt Q9UJQ4-2, residues 1-616)
Method: universal PBM
Molecule type: double-stranded DNA, one strand shown
Matrix: in vitro
Tested at: not given
Setting: 8-mer, flanks averaged, mean of replicates
Direction: higher = stronger binding
For `AGCATCCA`, the E-score was -0.0821.
`CTGATTGC` has an E-score of -0.0397.
The E-score of `CCGAAGTC` is reported as -0.0989.
`ATTTAGAA` has an E-score of 0.199.
The E-score of `ATCTGGCA` is reported as -0.016.
For `AGAAGATA`, the E-score was 0.239.
With `CCTATTAA` the E-score was 0.206.
`ACCTGCAG` has an E-score of -0.16.
`AGGGGGCA` has an E-score of -0.254.
The E-score of `ACCCAGAT` is reported as -0.0795.
`CTCGTCCA` gave an E-score of -0.0813.
`AAAGGCAG` gave an E-score of 0.0579.
The E-score of `GCGTAAGC` is reported as -0.183.
For `CCCCCAAG`, the E-score was -0.126.
`ACGCAAAA` gave an E-score of 0.0173.
The E-score of `AAAGAAAT` is reported as 0.298.
The E-score of `TAGTCGAA` is reported as 0.0995.
For `CGTCGCGC`, the E-score was -0.239.
With `GTCACAAA` the E-score was 0.0251.
For `AGACAGTC`, the E-score was -0.257.
`CATCCACA` has an E-score of 0.0674.
The E-score of `AATGGTGA` is reported as 0.107.
With `TAGAAATA` the E-score was 0.343.
With `AAATGTCT` the E-score was 0.164.
`ATAGGGCA` gave an E-score of 0.0712.

Series 3
Target: Prothrombin, mature alpha-thrombin (F2, Homo sapiens, UniProt P00734)
Method: aptamer microarray, sandwich
Molecule type: DNA with 2'F-ANA
Matrix: in vitro
Tested at: 200 nM
Setting: whole 15-mer aptamer, many near background
Added: Cy3 exosite-II aptamer, 400 nM
Direction: higher = stronger binding
Sequence: GGTTGGTGTGGTTGG
For `2'F-ANA at 2 3 4 5 6 7 9 10 11 15`, “mean fluorescence intensity” read 51.2 a.u.
Under “mean fluorescence intensity”, `2'F-ANA at 1 2 3 4 5 6 7 15` is recorded as 63.2 a.u.
`2'F-ANA at 1 3 5 6 8 9 10 12 15`: “mean fluorescence intensity” 54.1 a.u.
`2'F-ANA at 1 2 5 6 10 11 12 13`: “mean fluorescence intensity” 49.6 a.u.
`2'F-ANA at 3 4 6 7 9 10 11 14`: “mean fluorescence intensity” 171 a.u.
Under “mean fluorescence intensity”, `2'F-ANA at 1 2 3 6 7 8 9 10 11 15` is recorded as 67.3 a.u.
For `2'F-ANA at 1 2 4 5 6 8 9 10 12 15`, “mean fluorescence intensity” read 54 a.u.
`2'F-ANA at 4 5 6 8 9 11 12 13 14`: “mean fluorescence intensity” 47.5 a.u.
`2'F-ANA at 3 5 6 7 8 9 13 14 15`: “mean fluorescence intensity” 52.5 a.u.
For `2'F-ANA at 1 7 9 12 14 15`, “mean fluorescence intensity” read 74.3 a.u.
`2'F-ANA at 2 3 5 6 8 9 11 13`: “mean fluorescence intensity” 71.3 a.u.
For `2'F-ANA at 1 2 3 4 5 6 10 12 13 14`, “mean fluorescence intensity” read 45.4 a.u.
For `2'F-ANA at 1 2 3 5 9 11 13 14`, “mean fluorescence intensity” read 43.9 a.u.
`2'F-ANA at 4 7 14`: “mean fluorescence intensity” 216 a.u.
For `2'F-ANA at 3 4 5 7 10`, “mean fluorescence intensity” read 74.7 a.u.
`2'F-ANA at 1 6 7 9 11 12 14 15`: “mean fluorescence intensity” 62.7 a.u.
For `2'F-ANA at 1 2 3 4 5 7 10 13 14`, “mean fluorescence intensity” read 49.8 a.u.
`2'F-ANA at 1 3 5 7 9 10 11 12 13 14 15` — result for “mean fluorescence intensity”: 46.9 a.u.
Under “mean fluorescence intensity”, `2'F-ANA at 1 3 5 9 11 13 14 15` is recorded as 45.6 a.u.
Under “mean fluorescence intensity”, `2'F-ANA at 2 3 4 7 8 9 11 15` is recorded as 541 a.u.
Under “mean fluorescence intensity”, `2'F-ANA at 1 9 11` is recorded as 160 a.u.
For `2'F-ANA at 1 4 5 7 9 10 11 12 13 14`, “mean fluorescence intensity” read 45.2 a.u.
`2'F-ANA at 2 5 6 7 9 10 12 13 14` — result for “mean fluorescence intensity”: 47 a.u.

Series 4
Target: Histone acetyltransferase KAT6A, winged helix 1, GST fusion (KAT6A, Homo sapiens, UniProt Q92794, residues 1-85)
Method: protein binding microarray
Molecule type: double-stranded DNA, one strand shown
Matrix: in vitro
Tested at: not given
Setting: 8-mer, flanks averaged, mean of 2 arrays, mostly near background
Relative to: not given
Direction: higher = stronger binding
Construct (chain): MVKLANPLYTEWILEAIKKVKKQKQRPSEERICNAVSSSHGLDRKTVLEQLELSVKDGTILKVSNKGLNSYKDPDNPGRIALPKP
The E-score of `ACTAAAAT` is reported as -0.151.
`ATTCCTTA` has an E-score of -0.0471.
`ACTGCTTC` gave an E-score of 0.0693.
With `CTAAGGAG` the E-score was -0.31.
The E-score of `GTCCATAA` is reported as -0.219.
With `CCATTGAG` the E-score was 0.0767.
For `CCTTGTCG`, the E-score was -0.016.
`CGCGAGGC` gave an E-score of 0.312.
`CTCGCTCA` has an E-score of 0.0618.
`AATTGTAC` gave an E-score of -0.0758.
For `AGTATACC`, the E-score was -0.0673.
`ACCCACGA` has an E-score of -0.222.
`TGCAAGCA` has an E-score of -0.00261.
`AGTGTCTA` has an E-score of -0.242.
`CATATGCA` gave an E-score of -0.134.
`ACAGGCGG` gave an E-score of 0.174.
`GTTATAAC` has an E-score of 0.172.
The E-score of `AACCACAG` is reported as -0.197.
With `TATTGAAA` the E-score was -0.0995.
With `CGGACAAA` the E-score was 0.12.
The E-score of `ATGCAGTA` is reported as -0.0948.
`CTCCGACC` has an E-score of 0.137.
`AGGCAAAG` has an E-score of -0.168.
The E-score of `ATTAGGCA` is reported as -0.0817.
`ATCACCGC` gave an E-score of 0.288.

Excerpt of the above (series 2):
`CTGATTGC` has an E-score of -0.0397.
With `AAATGTCT` the E-score was 0.164.
The E-score of `CCGAAGTC` is reported as -0.0989.
The E-score of `ACCCAGAT` is reported as -0.0795.
`ATAGGGCA` gave an E-score of 0.0712.
The E-score of `AAAGAAAT` is reported as 0.298.
`ATTTAGAA` has an E-score of 0.199.
With `TAGAAATA` the E-score was 0.343.
The E-score of `ATCTGGCA` is reported as -0.016.
`ACGCAAAA` gave an E-score of 0.0173.
